Assay results pooled from the literature.
Parts stem from different laboratories: compare values within a part only. ± gives the spread as reported. Converted amounts (≈) assume the structure as drawn.

Block 1
Target: Replicase polyprotein 1ab, nsp12 with nsp7/nsp8 (rep, Severe acute respiratory syndrome coronavirus 2, UniProt P0DTD1)
Observed: enzyme activity
Concentration: 20 µM
Structure (SMILES) | inhibition [%]
CCN(CC)C(C)C(=O)c1ccccc1 (stereo not shown) | -5.99
Cc1cn([C@H]2C[C@H](N=[N+]=[N-])[C@@H](CO)O2)c(=O)[nH]c1=O | -7.94
CC(C)c1ccccc1Cc1cc(C(=O)Nc2ccc(S(=O)(=O)c3ccccc3C(C)(C)C)cc2)c(O)c(O)c1O | 90.8
CCOC(=O)C1=C[C@@H](OC(CC)CC)[C@H](NC(C)=O)[C@@H](N)C1 | 35
O=C(NN1C(=O)[C@@H]2[C@@H]3C=C[C@@H]([C@H]4C[C@@H]34)[C@@H]2C1=O)c1ccc(C(F)(F)F)cc1 | -5.19
COc1ccc2c(c1)c(CC(=O)O)c(C)n2C(=O)c1ccc(Cl)cc1 | 18.2
CC(=O)[C@@]1(O)CC[C@H]2[C@@H]3C[C@H](C)C4=CC(=O)C=C[C@]4(C)[C@@]3(F)[C@@H](O)C[C@@]21C | 22.7
CC(C)[C@]12O[C@H]1[C@@H]1O[C@]13[C@]1(O[C@H]1C[C@H]1C4=C(CC[C@@]13C)C(=O)OC4)[C@@H]2O | 0.34
CC(C)COCC(CN(Cc1ccccc1)c1ccccc1)N1CCCC1 (stereo not shown) | -1.86
CC(C)(C)NC(=O)N[C@H](C(=O)N1C[C@H]2[C@@H]([C@H]1C(=O)NC(CC1CCC1)C(=O)C(N)=O)C2(C)C)C(C)(C)C (stereo partly shown) | 1.98
O=c1c(O)c(-c2ccc(O)cc2O)oc2cc(O)cc(O)c12 | 104
CCCCCCNC(=O)n1cc(F)c(=O)[nH]c1=O | -13.8

Block 2
Target: Replicase polyprotein 1ab, main protease (rep, Severe acute respiratory syndrome coronavirus 2, UniProt P0DTD1)
Observed: enzyme activity
Action: inhibitor
Notes: with DTT
Compound | IC50 [µM]
CC(Cc1ccc(O)c(O)c1)C(C)Cc1ccc(O)c(O)c1 (stereo not shown) | 0.7
CC(=O)[O][Hg][c]1ccccc1 | 2
C[n+]1c2cc(N)ccc2cc2ccc(N)cc21.Nc1ccc2cc3ccc(N)cc3nc2c1 | > 20

Mixed results
SMILES | tested on | test | test system | conditions | how to read | quantity | value
CCC1=C(C)CN(C(=O)NCCc2ccc(S(=O)(=O)NC(=O)N[C@H]3CC[C@H](C)CC3)cc2)C1=O | HEK-293T/ACE2 | – | – | concentration not given, 16 (unit not given) | baseline: vehicle | viability | 106%
NCC1CCOC2(CCN(C(=O)C3(c4ccccc4)CCCC3)CC2)C1 (stereo not shown) | Venezuelan equine encephalitis virus | viral replication | – | – | – | EC50 | > 39.8 µM
C#C[C@]1(CO)O[C@@H](n2cnc3c(O)ncnc32)C[C@@H]1O | HIV-1 M184V | MTT | MT4 | – | – | IC50 | 0.356 ± 0.0772 µM
CC[C@H](C)[C@H](NC(=O)[C@H](CC(C)C)NC(=O)[C@H](Cc1c[nH]c2ccccc12)NC(=O)[C@H](CCC(N)=O)NC(=O)[C@@H](NC(=O)[C@H](Cc1ccccc1)NC(=O)[C@H](C)NC(=O)[C@H](CCCCNC(=O)COCCOCCNC(=O)COCCOCCNC(=O)CC[C@H](NC(=O)CCCCCCCCCCCCCCCCCCC(=O)O)C(=O)O)NC(=O)[C@H](CCC(N)=O)NC(=O)[C@H](C)NC(=O)[C@@H](NC(=O)[C@H](CCCCN)NC(=O)[C@H](CC(=O)O)NC(=O)[C@H](CC(C)C)NC(=O)C(C)(C)NC(=O)[C@@H](NC(=O)[C@H](CO)NC(=O)[C@H](Cc1ccc(O)cc1)NC(=O)[C@H](CC(=O)O)NC(=O)[C@H](CO)NC(=O)[C@@H](NC(=O)[C@H](Cc1ccccc1)NC(=O)[C@@H](NC(=O)CNC(=O)[C@H](CCC(=O)O)NC(=O)C(C)(C)NC(=O)[C@@H](N)Cc1ccc(O)cc1)[C@@H](C)O)[C@@H](C)O)[C@@H](C)CC)[C@@H](C)CC)C(C)C)C(=O)N[C@@H](C)C(=O)NCC(=O)NCC(=O)N1CCC[C@H]1C(=O)N[C@@H](CO)C(=O)N[C@@H](CO)C(=O)NCC(=O)N[C@@H](C)C(=O)N1CCC[C@H]1C(=O)N1CCC[C@H]1C(=O)N1CCC[C@H]1C(=O)N[C@@H](CO)C(N)=O | – | – | human, plasma | 5/5/10/10 mg escalation, day 22, tau 168 h, geometric mean | – | AUC(0-tau) | 131 µg·h/mL
O=C(/C=C/c1ccc(O)c(O)c1/C=C/c1ccc(O)c(O)c1)O[C@H](Cc1ccc(O)c(O)c1)C(=O)O | Severe acute respiratory syndrome coronavirus 2 | cytopathic effect | Vero C1008 | 12.5 µM | – | inhibition | 0%
Cn1c(=O)ccc2ccc(F)c(CCNC[C@H]3CN(c4cnc5c(n4)NC(=O)CO5)C(=O)O3)c21 | Burkholderia pseudomallei | – | – | – | – | MIC90 | 0.5 µg/mL (≈ 1.07 µM)
O=c1ccn([C@@H]2O[C@](F)(CO)[C@@H](O)[C@H]2O)c(=O)[nH]1 | Mammarenavirus machupoense | viral replication | – | – | – | EC50 | 0.12 to 0.28 µM
CN1CCN(C2Cc3ccccc3Sc3ccc(Cl)cc32)CC1.O=C(O)/C=C\C(=O)O (stereo not shown) | HeLa | Ebola VLP entry | – | – | – | maximal inhibition | 99%
CS(=O)(=O)N(Cc1ccccc1)CC1CCOC2(CCN(C(=O)C3(c4ccccc4)CCCC3)CC2)C1 (stereo not shown) | Venezuelan equine encephalitis virus | viral replication | – | – | – | EC50 | > 39.8 µM
CC(C)=CCc1c(O)ccc(C(=O)/C=C/c2ccc(O)cc2)c1O | SARS-CoV-2 | cytopathic effect | Vero E6 | 50 µM, replicate run | – | inhibition | 50%

For quick reference, copied from above (block 1):
Structure (SMILES) | inhibition [%]
CC(C)COCC(CN(Cc1ccccc1)c1ccccc1)N1CCCC1 (stereo not shown) | -1.86
CC(C)(C)NC(=O)N[C@H](C(=O)N1C[C@H]2[C@@H]([C@H]1C(=O)NC(CC1CCC1)C(=O)C(N)=O)C2(C)C)C(C)(C)C (stereo partly shown) | 1.98
